# Assay results of several laboratories.
# Protocols differ between the studies behind these lines.
# Htr2c: 5-hydroxytryptamine receptor 2C (Htr2c, Mus musculus, UniProt P34968)
# Sequence of UniProt P34968 (whole entry, looked up): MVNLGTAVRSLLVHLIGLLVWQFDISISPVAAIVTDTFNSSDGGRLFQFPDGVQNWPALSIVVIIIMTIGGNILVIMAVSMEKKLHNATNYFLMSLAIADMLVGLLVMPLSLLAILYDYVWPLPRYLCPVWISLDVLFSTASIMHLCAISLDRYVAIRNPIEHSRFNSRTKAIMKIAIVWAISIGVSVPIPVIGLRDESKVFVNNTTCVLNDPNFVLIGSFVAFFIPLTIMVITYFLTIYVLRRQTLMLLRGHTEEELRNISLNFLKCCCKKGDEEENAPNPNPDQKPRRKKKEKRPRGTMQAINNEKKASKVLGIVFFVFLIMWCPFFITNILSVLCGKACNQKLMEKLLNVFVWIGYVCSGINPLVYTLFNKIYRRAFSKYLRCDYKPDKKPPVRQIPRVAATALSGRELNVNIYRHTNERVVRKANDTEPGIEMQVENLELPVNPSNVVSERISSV
# TMPRSS2: Transmembrane protease serine 2 (TMPRSS2, Homo sapiens, UniProt O15393)
# Sequence of UniProt O15393 (whole entry, looked up): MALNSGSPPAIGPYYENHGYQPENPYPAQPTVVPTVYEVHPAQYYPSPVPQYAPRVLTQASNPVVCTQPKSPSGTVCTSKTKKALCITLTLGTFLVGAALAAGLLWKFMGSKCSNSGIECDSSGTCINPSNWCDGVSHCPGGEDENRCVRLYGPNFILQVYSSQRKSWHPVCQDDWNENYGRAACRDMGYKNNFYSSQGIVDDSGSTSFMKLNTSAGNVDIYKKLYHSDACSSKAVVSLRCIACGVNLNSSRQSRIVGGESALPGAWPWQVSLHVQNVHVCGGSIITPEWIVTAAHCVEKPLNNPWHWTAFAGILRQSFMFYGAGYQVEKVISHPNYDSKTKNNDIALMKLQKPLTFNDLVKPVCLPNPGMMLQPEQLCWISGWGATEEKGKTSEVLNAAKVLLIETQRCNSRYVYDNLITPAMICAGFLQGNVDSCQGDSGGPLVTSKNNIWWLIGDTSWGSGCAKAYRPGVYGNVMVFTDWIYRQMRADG
# tmk: Thymidylate kinase (tmk, Mycobacterium tuberculosis, UniProt P9WKE1)
# Sequence of UniProt P07948 (whole entry, looked up): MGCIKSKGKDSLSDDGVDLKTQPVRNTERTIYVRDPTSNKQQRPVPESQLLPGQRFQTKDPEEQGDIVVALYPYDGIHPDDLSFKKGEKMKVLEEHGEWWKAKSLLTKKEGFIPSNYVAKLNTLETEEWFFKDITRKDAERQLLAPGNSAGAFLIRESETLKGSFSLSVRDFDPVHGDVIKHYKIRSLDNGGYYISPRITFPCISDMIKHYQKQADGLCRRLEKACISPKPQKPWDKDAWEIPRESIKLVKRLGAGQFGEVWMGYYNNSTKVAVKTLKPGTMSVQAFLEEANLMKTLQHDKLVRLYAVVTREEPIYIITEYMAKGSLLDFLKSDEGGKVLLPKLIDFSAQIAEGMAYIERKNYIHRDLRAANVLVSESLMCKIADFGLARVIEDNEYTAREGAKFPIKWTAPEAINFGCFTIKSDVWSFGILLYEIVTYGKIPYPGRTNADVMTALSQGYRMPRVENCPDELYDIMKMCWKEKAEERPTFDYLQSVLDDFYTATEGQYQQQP
# Sequence of UniProt P35363 (whole entry, looked up): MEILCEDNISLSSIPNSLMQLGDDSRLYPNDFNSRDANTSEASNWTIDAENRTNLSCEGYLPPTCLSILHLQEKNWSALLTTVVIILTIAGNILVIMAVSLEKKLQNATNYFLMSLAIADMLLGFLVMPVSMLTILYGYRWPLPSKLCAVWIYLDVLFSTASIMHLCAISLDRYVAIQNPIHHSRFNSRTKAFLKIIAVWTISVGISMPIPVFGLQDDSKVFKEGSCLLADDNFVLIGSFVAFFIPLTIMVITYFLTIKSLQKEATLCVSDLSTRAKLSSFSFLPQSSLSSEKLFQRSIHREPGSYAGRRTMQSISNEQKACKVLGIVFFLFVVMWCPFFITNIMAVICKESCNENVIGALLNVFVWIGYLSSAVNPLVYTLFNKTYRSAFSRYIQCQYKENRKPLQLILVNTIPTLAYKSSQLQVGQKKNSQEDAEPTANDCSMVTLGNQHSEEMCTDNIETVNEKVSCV
# Sequence of UniProt P00519 (whole entry, unmodified, looked up): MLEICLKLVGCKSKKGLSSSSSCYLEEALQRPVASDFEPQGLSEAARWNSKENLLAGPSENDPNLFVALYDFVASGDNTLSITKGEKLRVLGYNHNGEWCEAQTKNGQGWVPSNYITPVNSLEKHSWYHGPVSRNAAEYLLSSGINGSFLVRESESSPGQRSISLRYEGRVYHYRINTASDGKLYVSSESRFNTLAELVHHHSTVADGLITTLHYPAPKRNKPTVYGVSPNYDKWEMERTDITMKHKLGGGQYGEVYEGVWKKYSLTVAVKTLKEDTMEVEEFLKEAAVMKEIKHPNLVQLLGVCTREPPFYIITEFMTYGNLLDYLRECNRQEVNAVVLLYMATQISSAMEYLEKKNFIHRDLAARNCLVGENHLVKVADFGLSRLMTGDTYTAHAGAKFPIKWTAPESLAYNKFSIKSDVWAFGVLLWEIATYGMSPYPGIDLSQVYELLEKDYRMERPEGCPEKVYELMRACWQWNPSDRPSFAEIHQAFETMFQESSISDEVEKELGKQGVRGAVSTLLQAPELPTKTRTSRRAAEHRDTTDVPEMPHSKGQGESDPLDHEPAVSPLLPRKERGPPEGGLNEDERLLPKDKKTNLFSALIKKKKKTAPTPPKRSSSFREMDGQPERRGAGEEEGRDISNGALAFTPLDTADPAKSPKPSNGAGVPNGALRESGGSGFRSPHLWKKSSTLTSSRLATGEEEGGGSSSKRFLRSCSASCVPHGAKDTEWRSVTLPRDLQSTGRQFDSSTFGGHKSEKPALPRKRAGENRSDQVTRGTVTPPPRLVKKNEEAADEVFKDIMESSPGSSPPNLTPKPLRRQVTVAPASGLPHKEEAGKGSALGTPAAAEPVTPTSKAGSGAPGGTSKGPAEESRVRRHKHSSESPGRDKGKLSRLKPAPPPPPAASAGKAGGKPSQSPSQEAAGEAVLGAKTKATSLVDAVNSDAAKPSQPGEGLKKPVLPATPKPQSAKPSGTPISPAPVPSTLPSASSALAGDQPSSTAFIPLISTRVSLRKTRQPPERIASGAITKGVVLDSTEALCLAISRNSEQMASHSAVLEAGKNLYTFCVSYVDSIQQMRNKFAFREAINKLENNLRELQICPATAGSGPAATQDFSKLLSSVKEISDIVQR
# Sequence of UniProt O14730 (whole entry, looked up): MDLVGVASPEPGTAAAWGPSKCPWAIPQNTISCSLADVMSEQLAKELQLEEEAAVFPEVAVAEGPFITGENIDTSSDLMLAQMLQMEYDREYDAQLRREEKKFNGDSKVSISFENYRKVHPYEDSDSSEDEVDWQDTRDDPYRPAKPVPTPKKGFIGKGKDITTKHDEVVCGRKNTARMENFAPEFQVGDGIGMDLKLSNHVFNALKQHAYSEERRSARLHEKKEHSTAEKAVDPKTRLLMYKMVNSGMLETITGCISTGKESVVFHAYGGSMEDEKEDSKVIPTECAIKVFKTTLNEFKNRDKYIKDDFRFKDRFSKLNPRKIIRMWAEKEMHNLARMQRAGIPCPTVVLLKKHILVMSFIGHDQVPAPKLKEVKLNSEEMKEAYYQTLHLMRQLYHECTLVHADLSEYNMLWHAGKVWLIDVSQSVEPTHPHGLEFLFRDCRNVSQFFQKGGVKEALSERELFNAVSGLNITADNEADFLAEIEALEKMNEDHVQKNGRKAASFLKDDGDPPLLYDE
# Sequence of UniProt P08581 (whole entry, looked up): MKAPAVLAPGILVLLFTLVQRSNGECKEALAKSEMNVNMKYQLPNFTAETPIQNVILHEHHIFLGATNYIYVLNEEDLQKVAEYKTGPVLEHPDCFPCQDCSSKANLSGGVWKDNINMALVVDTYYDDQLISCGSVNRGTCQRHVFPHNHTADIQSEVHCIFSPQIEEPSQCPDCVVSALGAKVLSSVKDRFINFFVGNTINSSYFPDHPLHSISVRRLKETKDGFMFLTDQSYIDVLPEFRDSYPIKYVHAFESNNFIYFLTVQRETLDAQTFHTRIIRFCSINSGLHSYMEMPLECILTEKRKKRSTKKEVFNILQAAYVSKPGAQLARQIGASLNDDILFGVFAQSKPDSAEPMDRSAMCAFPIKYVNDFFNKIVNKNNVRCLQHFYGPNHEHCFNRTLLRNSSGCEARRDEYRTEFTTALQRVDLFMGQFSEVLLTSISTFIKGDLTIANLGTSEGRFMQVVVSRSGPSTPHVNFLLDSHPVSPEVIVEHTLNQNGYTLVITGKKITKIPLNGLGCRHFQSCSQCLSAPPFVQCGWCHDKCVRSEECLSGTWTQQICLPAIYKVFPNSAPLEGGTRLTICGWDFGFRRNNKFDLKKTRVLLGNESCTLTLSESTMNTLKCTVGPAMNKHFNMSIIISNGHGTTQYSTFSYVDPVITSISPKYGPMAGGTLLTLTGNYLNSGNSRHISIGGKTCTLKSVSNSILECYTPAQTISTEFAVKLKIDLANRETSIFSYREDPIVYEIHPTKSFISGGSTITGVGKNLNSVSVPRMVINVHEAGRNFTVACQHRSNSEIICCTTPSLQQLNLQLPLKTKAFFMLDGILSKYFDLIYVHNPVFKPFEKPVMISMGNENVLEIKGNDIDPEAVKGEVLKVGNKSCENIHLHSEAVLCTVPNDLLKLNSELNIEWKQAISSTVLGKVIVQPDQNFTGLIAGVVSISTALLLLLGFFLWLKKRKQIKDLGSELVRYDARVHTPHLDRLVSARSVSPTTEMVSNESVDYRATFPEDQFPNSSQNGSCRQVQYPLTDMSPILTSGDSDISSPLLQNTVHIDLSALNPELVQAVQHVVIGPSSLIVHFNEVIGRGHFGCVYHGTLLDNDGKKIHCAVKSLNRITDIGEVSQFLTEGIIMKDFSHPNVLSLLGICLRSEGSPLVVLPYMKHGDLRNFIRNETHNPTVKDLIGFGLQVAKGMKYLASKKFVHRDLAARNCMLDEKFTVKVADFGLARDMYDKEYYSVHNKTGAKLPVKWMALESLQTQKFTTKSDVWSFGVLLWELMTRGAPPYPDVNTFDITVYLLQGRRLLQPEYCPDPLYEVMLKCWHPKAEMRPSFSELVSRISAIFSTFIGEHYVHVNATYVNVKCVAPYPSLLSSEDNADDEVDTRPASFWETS
SMILES,target or system,assay,test system,setting,endpoint,value
COc1cc(CCNCc2ccccc2O)c(OC)cc1C#N,Htr2c,"G protein activation, agonist, BRET",,,Emax,105%
Nc1ncc(-c2nc(N3CCOCC3)nc(N3CCOCC3)n2)c(C(F)F)n1,"MET (Homo sapiens, UniProt P08581)","cell-free assay, competition with immobilised ligand",,10 µM,remaining binding,63%
[2H]c1c([2H])c([C@]2([2H])CCCN2C(=O)C(C)(C)Oc2ccc3cn[nH]c3c2)c([2H])c([2H])c1C([2H])([2H])[2H],"LYN (Homo sapiens, UniProt P07948)","binding, competition with immobilised ligand",,1 µM,remaining binding,62%
COc1cc(CCNC(C)c2ccccc2)c(OC)cc1C#N (stereo not drawn),Htr2c,"G protein activation, agonist, BRET",,,Emax,87%
N=C(N)NCCC[C@H](NS(=O)(=O)c1ccccc1)C(=O)N[C@@H](CCC(N)=O)C(=O)N[C@@H](Cc1ccccc1)C(=O)N[C@H](CCCNC(=N)N)C(=O)c1nccs1,TMPRSS2,"enzyme activity, inhibitor",,1 nM,activity vs control,66%
CC(=O)S(=O)(=O)c1ccc(C(=O)N[C@H]2CC[C@@]3(O)[C@H]4Cc5ccc(O)c6c5[C@@]3(CCN4CC3CC3)[C@H]2O6)s1.Cl,HEK293,"GTPγS binding, agonist, radiometric",,,Emax,26.7%
CC1=C(C(N)=O)C(c2ccc([N+](=O)[O-])o2)NC(=O)N1 (stereo not drawn),tmk,"enzyme activity, inhibitor, absorbance",,0.01 µg/mL,inhibition,46.3%
Oc1ccc(-c2cc(COc3ccccc3C(F)(F)F)c(C3=CCNCC3)cc2COc2ccccc2C(F)(F)F)cc1,"PFF0160c (Plasmodium falciparum, UniProt Q08210)","enzyme activity, inhibitor, absorbance",,,IC50,> 10 µM
Cc1nn(C)cc1-c1nc2c(N3CCN(Cc4ccc(Cl)cc4)CC3)c(Cl)cnc2[nH]1,"Tyrosine-protein kinase ABL1, phosphorylated (ABL1, Homo sapiens, UniProt P00519, E255K)","binding, competition with immobilised ligand",,1 µM,remaining binding,77%
COc1ncccc1-c1cnn2ccc(N3CCN(C(=O)OC(C)C)CC3)nc12,"RIOK3 (Homo sapiens, UniProt O14730)","binding, competition with immobilised ligand",,1 µM,remaining binding,6.6%
COC(=O)c1cc(-c2cccc(NC(=O)Nc3ccc(F)cc3F)c2)on1,Klebsiella pneumoniae,"microbial growth, broth dilution",BAA1705,,MIC,> 64 µg/mL
C[C@H](NC(=O)[C@H](CC(N)=O)NC(=O)[C@@H](N)CCCCN)C(=O)N[C@H](CCCNC(=N)N)C(=O)c1nc2ccccc2s1,TMPRSS2,"enzyme activity, inhibitor",,1 nM,activity vs control,103%
CCOC(=O)C1=C(C)NC(=NN=c2[nH]c3ccccc3[nH]c2=O)NC1c1ccc(F)cc1 (stereo not drawn),tmk,"enzyme activity, inhibitor, absorbance",,10 µg/mL,inhibition,82.8%
Cl.O=C(N[C@H]1CC[C@@]2(O)[C@H]3Cc4ccc(O)c5c4[C@@]2(CCN3CC2CC2)[C@H]1O5)c1ccc(F)s1,HEK293,"GTPγS binding, agonist, radiometric",,,Emax,27.3%
CS(=O)(=O)N([C@@H](CCC(N)=O)C(=O)N[C@@H](Cc1ccccc1)C(=O)N[C@H](CCCNC(=N)N)C(=O)c1nc2ccccc2s1)S(C)(=O)=O,TMPRSS2,"enzyme activity, inhibitor",,1 nM,activity vs control,87%
CCC(NCCc1cc(OC)c(C#N)cc1OC)c1ccccc1O (stereo not drawn),"Htr2a (Mus musculus, UniProt P35363)","G protein activation, agonist, BRET",,,Emax,81%
COC(=O)c1cc(-c2cccc(NC(=O)Nc3cccc(Cl)c3Cl)c2)on1,Mycolicibacterium fortuitum,"microbial growth, broth dilution",ATCC6841,48 h,MIC,> 64 µg/mL
O=C(NC1CC1)c1ccc(N2CCOc3ccc(Cl)cc32)s1,"PFF0160c (Plasmodium falciparum, UniProt Q08210, E182D)","enzyme activity, inhibitor, absorbance",,,IC50,> 10 µM
Cl.O=C(N[C@H]1CC[C@@]2(O)[C@H]3Cc4ccc(O)c5c4[C@@]2(CCN3CC2CC2)[C@H]1O5)c1ccc(C(F)(F)F)s1,HEK293,"GTPγS binding, agonist, radiometric",,,Emax,29.4%
COc1cc(CCNC(C)c2ccccc2O)c(OC)cc1C#N (stereo not drawn),"HTR2C (Homo sapiens, UniProt P28335)","calcium signal, agonist",,,Emax,94%
C#Cc1n[nH]c2c(-c3cn(C(C)c4ccccn4)c(=O)[nH]c3=O)cc(F)cc12 (stereo not drawn),"IKBKB (Homo sapiens, UniProt O14920)","enzyme activity, inhibitor",,1 µM,inhibition,2.2%

# A few entries again:
SMILES,target or system,assay,test system,setting,endpoint,value
CC(=O)S(=O)(=O)c1ccc(C(=O)N[C@H]2CC[C@@]3(O)[C@H]4Cc5ccc(O)c6c5[C@@]3(CCN4CC3CC3)[C@H]2O6)s1.Cl,HEK293,"GTPγS binding, agonist, radiometric",,,Emax,26.7%
COc1cc(CCNCc2ccccc2O)c(OC)cc1C#N,Htr2c,"G protein activation, agonist, BRET",,,Emax,105%
CCOC(=O)C1=C(C)NC(=NN=c2[nH]c3ccccc3[nH]c2=O)NC1c1ccc(F)cc1 (stereo not drawn),tmk,"enzyme activity, inhibitor, absorbance",,10 µg/mL,inhibition,82.8%
